Measured values from different studies.
Several values in a cell are separate wells, animals, samples, runs or records. Numbers after ± are the reported error.
Aryl hydrocarbon receptor: Aryl hydrocarbon receptor (Danio rerio, UniProt Q9YGV3)
USP13 ZnF-UBD domain: Ubiquitin carboxyl-terminal hydrolase 13, ZnF-UBD domain (USP13, Homo sapiens, UniProt Q92995)
UniProt Q92995, sequence (whole entry, looked up): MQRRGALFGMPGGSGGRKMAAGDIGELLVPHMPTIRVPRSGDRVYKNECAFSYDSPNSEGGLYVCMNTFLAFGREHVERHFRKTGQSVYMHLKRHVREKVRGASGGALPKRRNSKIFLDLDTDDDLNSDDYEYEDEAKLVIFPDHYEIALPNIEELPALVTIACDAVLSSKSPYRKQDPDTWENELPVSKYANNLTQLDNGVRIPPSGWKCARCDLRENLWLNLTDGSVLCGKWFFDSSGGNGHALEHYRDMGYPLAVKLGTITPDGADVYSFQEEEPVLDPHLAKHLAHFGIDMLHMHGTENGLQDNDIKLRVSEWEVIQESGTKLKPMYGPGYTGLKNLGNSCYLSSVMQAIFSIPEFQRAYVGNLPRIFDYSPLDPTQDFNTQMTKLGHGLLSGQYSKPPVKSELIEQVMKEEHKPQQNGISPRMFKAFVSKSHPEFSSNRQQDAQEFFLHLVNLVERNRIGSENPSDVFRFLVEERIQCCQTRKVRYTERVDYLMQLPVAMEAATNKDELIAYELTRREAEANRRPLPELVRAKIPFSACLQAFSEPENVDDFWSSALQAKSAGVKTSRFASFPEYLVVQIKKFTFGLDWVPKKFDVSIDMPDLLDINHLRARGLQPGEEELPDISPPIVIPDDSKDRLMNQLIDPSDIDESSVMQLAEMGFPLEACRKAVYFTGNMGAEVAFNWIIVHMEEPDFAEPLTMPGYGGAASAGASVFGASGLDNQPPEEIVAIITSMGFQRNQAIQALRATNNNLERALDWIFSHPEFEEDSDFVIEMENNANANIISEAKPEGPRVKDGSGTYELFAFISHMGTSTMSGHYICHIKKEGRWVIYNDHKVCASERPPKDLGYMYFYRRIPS
SET: Protein SET (SET, Homo sapiens, UniProt Q01105)
UniProt Q01105, sequence (whole entry, looked up): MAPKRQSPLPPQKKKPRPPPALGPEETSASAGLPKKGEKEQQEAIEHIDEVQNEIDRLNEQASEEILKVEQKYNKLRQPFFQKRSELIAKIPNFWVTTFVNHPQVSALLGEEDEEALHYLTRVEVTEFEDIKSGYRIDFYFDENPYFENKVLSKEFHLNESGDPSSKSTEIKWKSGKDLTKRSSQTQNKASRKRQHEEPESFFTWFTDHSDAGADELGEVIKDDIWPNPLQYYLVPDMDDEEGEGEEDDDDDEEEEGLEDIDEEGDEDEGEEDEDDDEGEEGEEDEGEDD
FPR2: N-formyl peptide receptor 2 (FPR2, Homo sapiens, UniProt P25090)
UniProt P25090, sequence (whole entry, looked up): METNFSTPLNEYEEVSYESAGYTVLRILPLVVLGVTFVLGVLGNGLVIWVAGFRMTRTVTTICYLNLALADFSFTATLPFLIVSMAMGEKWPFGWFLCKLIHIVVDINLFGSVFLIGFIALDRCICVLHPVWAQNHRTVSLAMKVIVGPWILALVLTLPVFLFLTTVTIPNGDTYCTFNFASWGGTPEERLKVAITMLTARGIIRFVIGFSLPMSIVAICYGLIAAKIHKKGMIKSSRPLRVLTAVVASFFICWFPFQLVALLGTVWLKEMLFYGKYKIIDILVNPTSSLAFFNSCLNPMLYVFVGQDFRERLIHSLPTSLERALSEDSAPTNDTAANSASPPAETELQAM
NF-kappa-B inhibitor alpha: NF-kappa-B inhibitor alpha (Homo sapiens, UniProt P25963)
UniProt P25963, sequence (whole entry, looked up): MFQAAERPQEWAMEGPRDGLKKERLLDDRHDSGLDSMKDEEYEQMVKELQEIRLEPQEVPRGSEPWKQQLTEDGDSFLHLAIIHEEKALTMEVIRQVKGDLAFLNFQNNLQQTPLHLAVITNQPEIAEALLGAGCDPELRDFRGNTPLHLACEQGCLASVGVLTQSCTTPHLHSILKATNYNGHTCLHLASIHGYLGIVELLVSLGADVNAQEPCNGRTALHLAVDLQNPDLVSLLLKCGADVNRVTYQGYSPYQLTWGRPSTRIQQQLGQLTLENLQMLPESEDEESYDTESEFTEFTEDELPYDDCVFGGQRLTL
T1: ssDNA, aptamer; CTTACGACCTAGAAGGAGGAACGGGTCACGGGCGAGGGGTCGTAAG
UniProt O76090, sequence (whole entry, looked up): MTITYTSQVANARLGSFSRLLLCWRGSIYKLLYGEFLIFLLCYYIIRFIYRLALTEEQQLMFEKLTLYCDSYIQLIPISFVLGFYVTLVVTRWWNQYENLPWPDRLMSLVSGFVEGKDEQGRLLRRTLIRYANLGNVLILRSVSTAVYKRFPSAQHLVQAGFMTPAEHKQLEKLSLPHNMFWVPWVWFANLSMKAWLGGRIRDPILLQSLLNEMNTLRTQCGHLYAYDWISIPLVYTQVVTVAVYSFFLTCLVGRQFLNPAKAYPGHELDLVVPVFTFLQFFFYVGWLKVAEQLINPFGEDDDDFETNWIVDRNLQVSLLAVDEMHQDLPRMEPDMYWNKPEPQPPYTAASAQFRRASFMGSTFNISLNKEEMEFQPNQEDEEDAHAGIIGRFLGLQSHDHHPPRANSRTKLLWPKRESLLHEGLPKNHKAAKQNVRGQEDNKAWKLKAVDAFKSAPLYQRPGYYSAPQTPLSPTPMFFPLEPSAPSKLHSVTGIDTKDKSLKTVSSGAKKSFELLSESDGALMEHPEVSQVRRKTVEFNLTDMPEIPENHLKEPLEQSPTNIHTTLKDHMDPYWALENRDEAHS
UniProt P49773, sequence (whole entry, looked up): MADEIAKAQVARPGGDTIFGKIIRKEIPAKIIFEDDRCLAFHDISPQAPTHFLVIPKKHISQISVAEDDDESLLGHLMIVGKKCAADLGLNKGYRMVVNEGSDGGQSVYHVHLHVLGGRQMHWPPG
UniProt P00519, sequence (whole entry, unmodified, looked up): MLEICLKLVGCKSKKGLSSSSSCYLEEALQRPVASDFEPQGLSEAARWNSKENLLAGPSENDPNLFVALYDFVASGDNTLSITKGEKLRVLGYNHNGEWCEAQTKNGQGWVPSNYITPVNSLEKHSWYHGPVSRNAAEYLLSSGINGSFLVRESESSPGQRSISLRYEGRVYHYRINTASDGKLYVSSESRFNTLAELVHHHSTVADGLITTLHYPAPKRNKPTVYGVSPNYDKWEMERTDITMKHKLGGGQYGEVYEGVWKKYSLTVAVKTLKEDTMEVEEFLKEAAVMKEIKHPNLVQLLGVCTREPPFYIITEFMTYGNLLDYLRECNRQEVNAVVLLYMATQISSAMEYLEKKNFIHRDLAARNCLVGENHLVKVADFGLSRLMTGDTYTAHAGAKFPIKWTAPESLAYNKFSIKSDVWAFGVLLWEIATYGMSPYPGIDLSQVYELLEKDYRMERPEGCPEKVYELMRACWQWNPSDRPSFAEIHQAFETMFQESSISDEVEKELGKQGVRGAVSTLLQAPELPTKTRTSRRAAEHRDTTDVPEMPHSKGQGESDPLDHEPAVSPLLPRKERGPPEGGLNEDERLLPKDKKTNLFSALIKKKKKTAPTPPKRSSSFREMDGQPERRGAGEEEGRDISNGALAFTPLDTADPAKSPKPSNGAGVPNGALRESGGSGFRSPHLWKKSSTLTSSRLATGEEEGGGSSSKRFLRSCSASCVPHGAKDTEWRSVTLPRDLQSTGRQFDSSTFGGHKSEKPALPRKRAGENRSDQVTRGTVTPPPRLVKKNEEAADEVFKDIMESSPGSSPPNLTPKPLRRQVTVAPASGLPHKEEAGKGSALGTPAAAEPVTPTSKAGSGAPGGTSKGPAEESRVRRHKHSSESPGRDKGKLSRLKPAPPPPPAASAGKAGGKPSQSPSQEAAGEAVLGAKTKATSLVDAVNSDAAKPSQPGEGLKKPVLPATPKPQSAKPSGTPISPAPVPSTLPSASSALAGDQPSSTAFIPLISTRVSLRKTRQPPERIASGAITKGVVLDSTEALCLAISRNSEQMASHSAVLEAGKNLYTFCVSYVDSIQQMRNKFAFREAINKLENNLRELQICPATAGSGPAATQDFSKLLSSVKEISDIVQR
UniProt P00441, sequence (whole entry, unmodified, looked up): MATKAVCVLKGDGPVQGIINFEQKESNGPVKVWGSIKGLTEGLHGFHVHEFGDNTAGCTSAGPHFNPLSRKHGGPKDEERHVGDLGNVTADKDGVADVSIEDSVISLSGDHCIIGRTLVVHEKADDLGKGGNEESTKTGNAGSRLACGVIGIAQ
UniProt P51575, sequence (whole entry, unmodified, looked up): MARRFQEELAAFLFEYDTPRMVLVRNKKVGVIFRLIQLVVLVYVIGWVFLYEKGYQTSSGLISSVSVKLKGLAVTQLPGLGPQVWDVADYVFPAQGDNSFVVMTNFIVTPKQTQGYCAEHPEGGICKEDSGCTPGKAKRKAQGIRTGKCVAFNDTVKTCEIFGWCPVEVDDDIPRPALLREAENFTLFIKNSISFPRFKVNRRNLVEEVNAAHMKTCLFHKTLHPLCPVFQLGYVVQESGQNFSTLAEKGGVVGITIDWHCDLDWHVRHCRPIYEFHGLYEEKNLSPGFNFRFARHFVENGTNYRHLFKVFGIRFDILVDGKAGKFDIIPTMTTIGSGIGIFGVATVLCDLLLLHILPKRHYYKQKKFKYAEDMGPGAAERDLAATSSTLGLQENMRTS
UniProt P46095, sequence (whole entry, looked up): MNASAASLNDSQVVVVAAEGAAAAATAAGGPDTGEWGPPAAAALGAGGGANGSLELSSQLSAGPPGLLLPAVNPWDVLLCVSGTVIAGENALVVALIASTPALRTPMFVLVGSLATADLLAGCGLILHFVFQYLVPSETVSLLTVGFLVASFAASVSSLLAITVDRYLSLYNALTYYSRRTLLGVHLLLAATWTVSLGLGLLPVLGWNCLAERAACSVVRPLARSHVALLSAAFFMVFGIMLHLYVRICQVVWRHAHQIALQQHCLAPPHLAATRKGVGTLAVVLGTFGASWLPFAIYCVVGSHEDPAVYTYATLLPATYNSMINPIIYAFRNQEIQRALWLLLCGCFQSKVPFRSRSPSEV
UniProt Q16774, sequence (whole entry, unmodified, looked up): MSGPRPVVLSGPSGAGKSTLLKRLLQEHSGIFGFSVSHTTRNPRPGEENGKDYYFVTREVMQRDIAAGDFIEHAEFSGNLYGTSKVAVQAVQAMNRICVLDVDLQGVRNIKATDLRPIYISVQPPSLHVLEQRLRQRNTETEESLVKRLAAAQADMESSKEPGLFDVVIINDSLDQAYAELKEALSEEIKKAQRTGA

With `Cn1c2c(c3ccc(Cl)c(Cl)c31)C(C#N)C1(CCN(C(=O)OC(C)(C)C)CC1)NC2=O` (racemic) the delta Tm was 0 °C (Serine/threonine-protein kinase VRK3 (VRK3, Homo sapiens, UniProt Q8IV63); thermal stability, thermal shift; 10 µM; higher = stronger binding).
For `c1ccc2c(c1)-c1cccc3c1c-2cc1ccccc13`, the fold change was 1.85 (Aryl hydrocarbon receptor; reporter gene, agonist, luciferase reporter; ZF-4; 1.524 µM; baseline: vehicle control).
With `Nc1ccc(C(=O)O)cc1` the current density was 0.01 pA/pF and 0.1 pA/pF and -0.02 pA/pF and -0.22 pA/pF and 0.3 pA/pF and 0.25 pA/pF and -0.33 pA/pF (BEST1 (Homo sapiens, UniProt O76090); whole-cell patch clamp; HEK293 transiently expressing channel; concentration not given, membrane potential 0 mV).
With `Cc1sc2ncn(CC(=O)O)c(=O)c2c1C` the Kd was over 1000 µM (USP13 ZnF-UBD domain).
`NCCCCC(=O)O` — result for “normalised MST signal”: 0.0153 (SLC6A6 (Homo sapiens, UniProt P31641, G62A); binding, microscale thermophoresis; 122 nM, room temperature, added: 50 nM labelled protein; higher = more binding).
With `Nc1ncnc2c1ncn2[C@@H]1O[C@H](COP(=O)(O)OP(=O)(O)OP(=O)(O)O)[C@@H](O)[C@H]1O` the Kd was 0.63 µM (T1, ssDNA, aptamer; ITC).
With `CN1CCN(c2cc(-c3ccncc3)c(-c3ccc4ccccc4c3)nn2)CC1` the activation was 0.2% (SSTR5 (Homo sapiens, UniProt P35346); agonist, FLIPR; 12.5 µM).
`Nc1ncnc2c1ncn2[C@@H]1O[C@H](COP(=O)(O)CP(=O)(O)OP(=O)(O)O)[C@@H](O)[C@H]1O` has a specific binding of 2940 CCPM and 3330 CCPM (P2X purinoceptor 1 (P2RX1, Homo sapiens, UniProt P51575, K215A); saturation binding; HEK293; 52 nM).
`Nc1ncnc2c1ncn2[C@@H]1O[C@H](CO[P@](=O)(O)O[P@](=O)(O)O[P@@](=O)(O)S)[C@@H](O)[C@H]1O` — result for “ΔG of binding”: -6 kcal/mol (GUK1 (Homo sapiens, UniProt Q16774); ITC; concentration not given).
`C[n+]1cn([C@@H]2O[C@H](COP(=O)(O)OP(=O)(O)OP(=O)(O)OC[C@H]3O[C@@H](n4cnc5c(=O)[nH]c(N)nc54)[C@H](O)[C@@H]3O)[C@@H](O)[C@H]2O)c2nc(N)[nH]c(=O)c21` gave a binding stoichiometry of 1.01 ± 0.01 (EIF4E2 (Homo sapiens, UniProt O60573); ITC; concentration not given, pH 7.5, 20 °C).
With `CN(CCCCCCNC(=O)COc1ccc(C2CCC(=O)NC2=O)cc1)Cc1cn(Cc2ccc(C(=O)NO)cc2)c2ccccc12.O=C(O)C(F)(F)F` (stereo not shown) the degradation was 95% (HDAC6 (Homo sapiens, UniProt Q9UBN7); degrader, western blot; MM1.S; 5 µM, 24 h).
With `C[C@H]1CCN(c2nccc(-c3cnn4ncccc34)n2)C1` the remaining binding was 69% (ABL1 (Homo sapiens, UniProt P00519, Q252H); 1 µM; baseline: control).
The remaining activity of `C=CC(=O)N1CCC[C@@H](n2nc(-c3ccc(Oc4ccccc4)cc3)c3c(N)ncnc32)C1` is reported as 99.1% (FGFR4 (Homo sapiens, UniProt P22455); 1 µM).
`O=c1nc(SCc2cc(F)cc(C(F)(F)F)c2)nc(SCc2csc3ccc(Cl)cc23)[nH]1` — result for “mean relaxed DNA”: 2.6% (TOP2A (Homo sapiens, UniProt P11388); DNA relaxation; 15.6 µM).
`CC(=C/C(=O)O)/C=C/C=C(\C)C1C=C2C(C)(C)CCCC2(C)O1` (stereo not shown): “plasma membrane localization” 0.92 (Rhodopsin (RHO, Homo sapiens, UniProt P08100, P23H); immunostaining, measured: opsin; COS-7 transfected; 20.00 µM, unit not given; baseline: surface over total stained cells).
Under “log2 fold change”, `CCN1CCC[C@H]1CNC(=O)c1c(O)c(Cl)cc(Cl)c1OC` is recorded as 0.017 (G-protein coupled receptor 6 (Homo sapiens, UniProt P46095); β-arrestin recruitment, TANGO luminescence, measured: GPR6; concentration not given; baseline: basal luminescence).
`Cc1cccc(N2CC(C(=O)O)CC2=O)c1` (stereo not shown) — result for “log fold enrichment”: -0.171 (Huntingtin (HTT, Homo sapiens, UniProt P42858); binding, affinity selection mass spectrometry; baseline: other proteins in batch).
`CCCCCCCCCCCCC/C=C/[C@@H](O)[C@H](CO)NC(=O)CCCCCCCCCCCCCCC` — result for “lipid fraction bound”: 2.7% (SET; lipid binding, GFP pull-down LC-MS/MS; A549 overexpressing GFP-tagged protein; baseline: eluate plus flow-through).
For `CC/C=C\C[C@H](O)/C=C/C=C\C/C=C\C=C\[C@@H](O)C/C=C\CCC(=O)O`, intracellular calcium read “no effect” (FPR2; calcium mobilisation; HEK293 expressing FPR2; concentration not given).
Under “lipid fraction bound”, `CCCCCCCCCCCCC/C=C/[C@@H](O)[C@H](CO)NC(=O)CCCCCCCCCCCCCCCCCCCCCCC` is recorded as 2.5% (SET; lipid binding, GFP pull-down LC-MS/MS; A549 overexpressing GFP-tagged protein; ER-targeted construct; baseline: eluate plus flow-through).
For `CC1CCCN1c1nccc(-c2cnn3ncccc23)n1` (stereo not shown), the remaining binding was 100% (ABL1 (Homo sapiens, UniProt P00519, F317I); KINOMEscan; 1 µM).
`O=C(COP(=O)(O)O)[C@@H](O)[C@H](O)[C@H](O)COP(=O)(O)O` — result for “thermal stability ratio”: 0.49 and 0.985 and 0.694 (HINT1 (Homo sapiens, UniProt P49773); thermal proteome profiling; HepG2 cell lysate; concentration not given, 57 over 37 °C; baseline: compound over control).
`CC[C@H](C)[C@H](NC(=O)[C@H](CCCNC(=N)N)NC(=O)[C@H](Cc1c[nH]cn1)NC(=O)[C@H](CCCNC(=N)N)NC(=O)[C@H](CC(=O)O)NC(=O)[C@@H](N)CC(=O)O)C(=O)N[C@@H](CCC(=O)O)C(=O)N[C@@H](CCC(=O)O)C(=O)N[C@@H](CCCCN)C(=O)N[C@@H](CCCNC(=N)N)C(=O)N[C@@H](CCCCN)C(=O)N[C@@H](CCCNC(=N)N)C(=O)N[C@H](C(=O)N[C@@H](Cc1ccc(O)cc1)C(=O)N[C@@H](CCC(=O)O)C(=O)N[C@H](C(=O)N[C@@H](Cc1ccccc1)C(=O)N[C@@H](CCCCN)C(=O)N[C@@H](CO)C(=O)N[C@H](C(=O)N[C@@H](CCSC)C(=O)N[C@@H](CCCCN)C(=O)N[C@@H](CCCCN)C(=O)N[C@@H](CO)C(=O)N1CCC[C@H]1C(=O)N[C@@H](Cc1ccccc1)C(=O)N[C@@H](CC(N)=O)C(=O)NCC(=O)N1CCC[C@H]1C(=O)O)[C@@H](C)CC)[C@@H](C)O)[C@@H](C)O` has a ΔG of -8.6 ± 0.3 kcal/mol (NF-kappa-B inhibitor alpha; binding, ITC; pH 7.5, 293 K, 50 mM NaCl).
With `Cc1ncsc1-c1ccc(CNC(=O)[C@@H]2C[C@@H](O)CN2C(=O)[C@@H](NC(=O)C2(F)CC2)C(C)(C)C)c(OCCOCCOCCN2CCN(c3cc(-c4ccccc4O)nnc3N)CC2)c1` the cooperativity factor was 4.4 (VHL-ElonginB-ElonginC complex human; ternary complex formation, fluorescence polarization; added: SMARCA2 bromodomain).
`O=C1C=CC(=O)c2c1ccc1ccccc21` gave a fold change of 14 (Aryl hydrocarbon receptor; reporter gene, agonist, luciferase reporter; ZF-4; 123.5 µM; baseline: vehicle control).
`N#Cc1ccc(C[C@H](NC(=O)c2cc3ccccc3[nH]2)C(=O)N2CCc3ccccc32)cc1`: activity “inactive” (FPR2; cell-based; concentration not given).
`CCCCc1nnc2c(N)nc3ccccc3n12` — result for EC50: “inactive” (TLR8 (Homo sapiens, UniProt Q9NR97); reporter gene, agonist, NF-κB reporter; HEK-Blue TLR8).
The binding stoichiometry of `O=C(CCCCCCC(=O)Nc1ccccc1)NO` is reported as 0.8 (HDAC8 (Homo sapiens, UniProt Q9BY41); ITC; Tris-HCl buffer; concentration not given, 278 K).
For `c1coc(-c2n[nH]cc2-c2ccnc3ccccc23)c1`, “log2 fold change” read 0.08 (Serine/threonine-protein kinase STE7 homolog (HST7, Candida albicans, UniProt Q5A6T5); kinase binding, MIB/MS competition; Candida albicans lysate; 1 µM; baseline: DMSO, negative = stronger binding).
For `CC[C@H](C)[C@H](NC(=O)[C@H](CCCNC(=N)N)NC(=O)[C@H](Cc1c[nH]cn1)NC(=O)[C@H](CCCNC(=N)N)NC(=O)[C@H](CC(=O)O)NC(=O)[C@H](CC(=O)O)NC(=O)[C@@H](NC(=O)[C@H](CC(=O)O)NC(=O)[C@@H]1CCCN1C(=O)[C@@H](N)CC(C)C)[C@@H](C)O)C(=O)N[C@@H](CCC(=O)O)C(=O)N[C@@H](CCC(=O)O)C(=O)N[C@@H](CCCCN)C(=O)N[C@@H](CCCNC(=N)N)C(=O)N[C@@H](CCCCN)C(=O)N[C@@H](CCCNC(=N)N)C(=O)N[C@H](C(=O)N[C@@H](Cc1ccc(O)cc1)C(=O)N[C@@H](CCC(=O)O)C(=O)N[C@H](C(=O)N[C@@H](Cc1ccccc1)C(=O)N[C@@H](CCCCN)C(=O)N[C@@H](CO)C(=O)N[C@H](C(=O)N[C@@H](CCSC)C(=O)N[C@@H](CCCCN)C(=O)N[C@@H](CCCCN)C(=O)N[C@@H](CO)C(=O)N1CCC[C@H]1C(=O)N[C@@H](Cc1ccccc1)C(=O)N[C@@H](CC(N)=O)C(=O)NCC(=O)N1CCC[C@H]1C(=O)O)[C@@H](C)CC)[C@@H](C)O)[C@@H](C)O`, the ΔG was -8.1 ± 0.1 kcal/mol (NF-kappa-B inhibitor alpha; binding, ITC; pH 7.5, 293 K, 50 mM NaCl).
`[O-][S+]1CCCCS1` (stereo not shown) has a target engagement of 56.4% and 55% (SOD1 (Homo sapiens, UniProt P00441, G94A); intact protein LC-MS; SOD1 G93A transgenic mice, whole blood; intravenous, 10 mg/kg, 2 h).
The remaining activity of `O=C(O)c1ccc(Nc2ncc3c(n2)-c2ccc(Cl)cc2C(c2c(F)cccc2F)=NC3)cc1` is reported as 59% (human Lck(h); kinase activity; 1 µM).
`Nc1ccc2ccc3cccc4ccc1c2c34` gave a fold change of 1.7 (Aryl hydrocarbon receptor; reporter gene, agonist, luciferase reporter; ZF-4; 3333.33 µM; baseline: vehicle control).
With `Cc1ccc2c(ccc3ccccc32)c1` the maximum response was 199 LacZ units (AHR (Homo sapiens, UniProt P35869); reporter gene, agonist, yeast LacZ reporter; Saccharomyces cerevisiae).
Under “fold change in expression”, `Cn1cc(-c2ccc(-c3cncc(Cl)c3N3CCC4(CCNC4=O)CC3)cc2)cn1` is recorded as -2.4 (COLO 205; microarray, measured: STAMBPL1; concentration not given, 6 h, gene set AMSH-2; baseline: untreated cells).
`O=C(O)CNC(=O)c1ccc(S(=O)(=O)N2CCC(n3c(=O)oc4ccccc43)CC2)cc1` has a Kd of over 1000 µM (USP13 ZnF-UBD domain).
`Nc1nnc(-c2ccccc2O)cc1N1CCN(Cc2ccc(OCCOCCNc3cccc4c3C(=O)N(C3CCC(=O)NC3=O)C4=O)c(F)c2)CC1` (stereo not shown) — result for “decrease in protein level”: 88% (SMARCA2 (Homo sapiens, UniProt P51531); immunoblot; mouse, NCI-H1568 xenograft, tumour lysate; dose not given, 6 h after final dose; baseline: vehicle).

Some of these lines once more:
With `CN(CCCCCCNC(=O)COc1ccc(C2CCC(=O)NC2=O)cc1)Cc1cn(Cc2ccc(C(=O)NO)cc2)c2ccccc12.O=C(O)C(F)(F)F` (stereo not shown) the degradation was 95% (HDAC6 (Homo sapiens, UniProt Q9UBN7); degrader, western blot; MM1.S; 5 µM, 24 h).
The binding stoichiometry of `O=C(CCCCCCC(=O)Nc1ccccc1)NO` is reported as 0.8 (HDAC8 (Homo sapiens, UniProt Q9BY41); ITC; Tris-HCl buffer; concentration not given, 278 K).
`CCCCCCCCCCCCC/C=C/[C@@H](O)[C@H](CO)NC(=O)CCCCCCCCCCCCCCC` — result for “lipid fraction bound”: 2.7% (SET; lipid binding, GFP pull-down LC-MS/MS; A549 overexpressing GFP-tagged protein; baseline: eluate plus flow-through).
`Cc1cccc(N2CC(C(=O)O)CC2=O)c1` (stereo not shown) — result for “log fold enrichment”: -0.171 (Huntingtin (HTT, Homo sapiens, UniProt P42858); binding, affinity selection mass spectrometry; baseline: other proteins in batch).
For `CC[C@H](C)[C@H](NC(=O)[C@H](CCCNC(=N)N)NC(=O)[C@H](Cc1c[nH]cn1)NC(=O)[C@H](CCCNC(=N)N)NC(=O)[C@H](CC(=O)O)NC(=O)[C@H](CC(=O)O)NC(=O)[C@@H](NC(=O)[C@H](CC(=O)O)NC(=O)[C@@H]1CCCN1C(=O)[C@@H](N)CC(C)C)[C@@H](C)O)C(=O)N[C@@H](CCC(=O)O)C(=O)N[C@@H](CCC(=O)O)C(=O)N[C@@H](CCCCN)C(=O)N[C@@H](CCCNC(=N)N)C(=O)N[C@@H](CCCCN)C(=O)N[C@@H](CCCNC(=N)N)C(=O)N[C@H](C(=O)N[C@@H](Cc1ccc(O)cc1)C(=O)N[C@@H](CCC(=O)O)C(=O)N[C@H](C(=O)N[C@@H](Cc1ccccc1)C(=O)N[C@@H](CCCCN)C(=O)N[C@@H](CO)C(=O)N[C@H](C(=O)N[C@@H](CCSC)C(=O)N[C@@H](CCCCN)C(=O)N[C@@H](CCCCN)C(=O)N[C@@H](CO)C(=O)N1CCC[C@H]1C(=O)N[C@@H](Cc1ccccc1)C(=O)N[C@@H](CC(N)=O)C(=O)NCC(=O)N1CCC[C@H]1C(=O)O)[C@@H](C)CC)[C@@H](C)O)[C@@H](C)O`, the ΔG was -8.1 ± 0.1 kcal/mol (NF-kappa-B inhibitor alpha; binding, ITC; pH 7.5, 293 K, 50 mM NaCl).
